Measurements gathered from unrelated publications.
Every numbered part comes from another study and shows a few of its results, in no order. “And” joins repeats or separate records; there may be more than shown.
UniProt P21918, sequence (whole entry, looked up): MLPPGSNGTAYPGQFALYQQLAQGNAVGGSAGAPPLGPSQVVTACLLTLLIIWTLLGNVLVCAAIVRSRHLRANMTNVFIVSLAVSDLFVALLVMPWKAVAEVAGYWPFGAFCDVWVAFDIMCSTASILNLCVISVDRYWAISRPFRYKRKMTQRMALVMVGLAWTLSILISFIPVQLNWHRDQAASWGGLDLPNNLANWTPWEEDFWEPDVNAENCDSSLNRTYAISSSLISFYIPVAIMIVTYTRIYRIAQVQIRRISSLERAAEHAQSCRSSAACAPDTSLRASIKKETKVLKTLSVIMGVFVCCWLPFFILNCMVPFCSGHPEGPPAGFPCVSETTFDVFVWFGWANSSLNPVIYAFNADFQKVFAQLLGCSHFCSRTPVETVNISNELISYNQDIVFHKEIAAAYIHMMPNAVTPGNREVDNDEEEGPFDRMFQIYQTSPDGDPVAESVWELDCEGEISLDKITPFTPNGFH
UniProt P41145, sequence (whole entry, looked up): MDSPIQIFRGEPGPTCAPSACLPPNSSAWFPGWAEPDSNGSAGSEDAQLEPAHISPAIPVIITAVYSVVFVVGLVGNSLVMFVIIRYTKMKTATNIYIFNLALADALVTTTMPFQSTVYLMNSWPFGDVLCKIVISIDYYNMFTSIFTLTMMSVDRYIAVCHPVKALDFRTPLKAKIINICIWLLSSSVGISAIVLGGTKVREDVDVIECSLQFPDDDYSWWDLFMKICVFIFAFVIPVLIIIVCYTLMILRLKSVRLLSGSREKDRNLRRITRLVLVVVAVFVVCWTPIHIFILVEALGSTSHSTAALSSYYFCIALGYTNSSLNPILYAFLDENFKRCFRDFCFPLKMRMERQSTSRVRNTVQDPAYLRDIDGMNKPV
UniProt P20309, sequence (whole entry, looked up): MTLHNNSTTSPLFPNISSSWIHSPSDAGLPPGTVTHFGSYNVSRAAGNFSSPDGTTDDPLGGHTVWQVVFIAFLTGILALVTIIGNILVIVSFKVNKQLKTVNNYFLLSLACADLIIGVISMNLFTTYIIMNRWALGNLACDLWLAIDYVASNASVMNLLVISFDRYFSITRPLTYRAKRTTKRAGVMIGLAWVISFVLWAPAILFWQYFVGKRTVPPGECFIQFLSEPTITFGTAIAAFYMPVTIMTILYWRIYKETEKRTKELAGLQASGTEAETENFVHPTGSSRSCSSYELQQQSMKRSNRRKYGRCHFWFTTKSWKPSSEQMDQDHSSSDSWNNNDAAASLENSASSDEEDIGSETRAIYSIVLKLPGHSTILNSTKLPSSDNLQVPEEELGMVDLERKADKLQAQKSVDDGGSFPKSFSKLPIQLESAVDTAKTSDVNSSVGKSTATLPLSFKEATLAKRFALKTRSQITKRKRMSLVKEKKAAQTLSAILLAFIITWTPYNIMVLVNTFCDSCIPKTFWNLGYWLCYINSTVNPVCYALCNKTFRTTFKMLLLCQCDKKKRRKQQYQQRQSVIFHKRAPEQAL
UniProt P31645, sequence (whole entry, looked up): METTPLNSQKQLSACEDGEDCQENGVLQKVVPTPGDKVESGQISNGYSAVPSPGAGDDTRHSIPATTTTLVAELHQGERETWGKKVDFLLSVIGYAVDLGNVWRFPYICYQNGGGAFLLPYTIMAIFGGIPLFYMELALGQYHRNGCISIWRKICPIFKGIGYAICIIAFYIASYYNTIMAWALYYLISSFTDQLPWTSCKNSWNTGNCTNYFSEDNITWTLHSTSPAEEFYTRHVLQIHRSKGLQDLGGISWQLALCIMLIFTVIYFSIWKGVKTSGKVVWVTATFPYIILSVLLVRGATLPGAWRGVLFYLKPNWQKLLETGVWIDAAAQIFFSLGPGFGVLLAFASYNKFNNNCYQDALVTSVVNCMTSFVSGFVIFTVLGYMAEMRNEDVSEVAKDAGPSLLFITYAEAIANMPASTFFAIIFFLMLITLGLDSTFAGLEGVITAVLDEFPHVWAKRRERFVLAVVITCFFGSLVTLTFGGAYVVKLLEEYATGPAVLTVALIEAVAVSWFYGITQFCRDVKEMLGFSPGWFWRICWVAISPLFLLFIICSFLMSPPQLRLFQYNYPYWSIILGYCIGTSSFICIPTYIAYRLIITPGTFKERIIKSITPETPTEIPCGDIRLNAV
UniProt P35372, sequence (whole entry, looked up): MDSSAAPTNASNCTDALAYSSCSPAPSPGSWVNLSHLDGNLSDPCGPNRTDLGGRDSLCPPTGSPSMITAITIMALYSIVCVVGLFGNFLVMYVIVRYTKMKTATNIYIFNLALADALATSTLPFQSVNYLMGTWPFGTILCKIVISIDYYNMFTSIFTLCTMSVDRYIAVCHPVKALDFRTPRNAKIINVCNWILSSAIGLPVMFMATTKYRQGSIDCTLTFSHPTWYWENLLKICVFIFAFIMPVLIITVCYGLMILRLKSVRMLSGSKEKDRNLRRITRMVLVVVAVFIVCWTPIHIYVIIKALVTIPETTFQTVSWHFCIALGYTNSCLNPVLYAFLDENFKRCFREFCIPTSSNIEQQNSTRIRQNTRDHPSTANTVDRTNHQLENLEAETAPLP
UniProt Q01959, sequence (whole entry, looked up): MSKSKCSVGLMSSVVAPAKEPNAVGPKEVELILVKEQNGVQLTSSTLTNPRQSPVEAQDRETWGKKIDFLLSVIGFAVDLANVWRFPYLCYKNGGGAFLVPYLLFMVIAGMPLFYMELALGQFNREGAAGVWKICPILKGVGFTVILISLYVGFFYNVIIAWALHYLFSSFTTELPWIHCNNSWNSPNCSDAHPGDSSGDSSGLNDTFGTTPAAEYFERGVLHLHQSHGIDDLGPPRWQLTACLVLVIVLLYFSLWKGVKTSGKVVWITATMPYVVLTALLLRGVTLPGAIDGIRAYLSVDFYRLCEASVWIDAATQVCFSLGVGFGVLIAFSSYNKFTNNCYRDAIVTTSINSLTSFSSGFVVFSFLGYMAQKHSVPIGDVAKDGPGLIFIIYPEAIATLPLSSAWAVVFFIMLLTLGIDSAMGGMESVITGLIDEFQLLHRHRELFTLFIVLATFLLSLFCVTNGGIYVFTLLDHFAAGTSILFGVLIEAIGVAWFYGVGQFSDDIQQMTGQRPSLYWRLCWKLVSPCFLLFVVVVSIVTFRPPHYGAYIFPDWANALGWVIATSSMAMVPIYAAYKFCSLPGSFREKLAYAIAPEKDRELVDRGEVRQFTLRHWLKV
UniProt P08908, sequence (whole entry, looked up): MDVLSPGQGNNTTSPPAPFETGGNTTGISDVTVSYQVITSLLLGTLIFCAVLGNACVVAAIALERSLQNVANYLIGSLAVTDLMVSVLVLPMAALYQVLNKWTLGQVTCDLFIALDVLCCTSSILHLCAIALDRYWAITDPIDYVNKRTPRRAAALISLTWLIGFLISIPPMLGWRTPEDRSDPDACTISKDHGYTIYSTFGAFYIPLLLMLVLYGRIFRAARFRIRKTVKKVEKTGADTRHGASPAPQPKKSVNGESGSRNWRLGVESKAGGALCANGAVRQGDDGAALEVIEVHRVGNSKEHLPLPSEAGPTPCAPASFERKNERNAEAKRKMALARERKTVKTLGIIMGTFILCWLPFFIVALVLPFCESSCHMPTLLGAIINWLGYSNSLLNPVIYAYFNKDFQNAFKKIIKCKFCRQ

Sample 1
Target: Calcium/calmodulin-dependent protein kinase type II subunit alpha (CAMK2A, Homo sapiens, UniProt Q9UQM7)
UniProt Q9UQM7, sequence (whole entry, looked up): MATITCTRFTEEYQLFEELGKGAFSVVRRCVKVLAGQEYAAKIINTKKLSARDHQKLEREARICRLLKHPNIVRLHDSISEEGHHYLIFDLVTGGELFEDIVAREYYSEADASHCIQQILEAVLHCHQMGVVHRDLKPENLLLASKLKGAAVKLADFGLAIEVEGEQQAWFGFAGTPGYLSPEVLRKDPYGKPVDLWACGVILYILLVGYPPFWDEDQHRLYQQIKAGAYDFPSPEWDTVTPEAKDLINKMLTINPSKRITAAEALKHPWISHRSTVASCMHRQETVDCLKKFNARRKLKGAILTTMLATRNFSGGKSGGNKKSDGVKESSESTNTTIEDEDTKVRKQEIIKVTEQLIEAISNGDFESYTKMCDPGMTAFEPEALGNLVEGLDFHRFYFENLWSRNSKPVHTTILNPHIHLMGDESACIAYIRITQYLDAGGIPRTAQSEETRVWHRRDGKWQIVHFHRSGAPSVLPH
Read-out: enzyme activity
Action: inhibitor
Tested at: 10 µM
Structure (SMILES) | inhibition [%]
CN1C(=O)CCS(=O)(=O)C1c1ccc(Cl)cc1 (stereo not drawn) | -7
CC1=C[C@@H]2C(=O)[C@]3(C=C(C)[C@H](O)[C@@]3(O)[C@@H]1O)[C@H](C)C[C@@H]1[C@H]2C1(C)C | -28
CO[C@@H]1C[C@@H](C[C@H]2CC[C@H](C)[C@H]([C@@H](C)C(=O)O)O2)O[C@]2(O[C@](C)([C@H]3CC[C@@](C)([C@@H]4O[C@@H]([C@H]5O[C@@](O)(CO)[C@H](C)C[C@@H]5C)C[C@@H]4C)O3)C[C@H]2C)[C@@H]1C | -39
CC1(C)COC(=O)[C@@H]1O | 40
COc1ccc(C(=O)O[C@H]2CC[C@@]3(C)[C@@H]4CC[C@H]5[C@]6(O)C[C@H](O)[C@@]7(O)[C@@H](CN8C[C@@H](C)CC[C@H]8[C@@]7(C)O)[C@]6(O)C[C@@]53O[C@]24O)cc1OC | 35

Sample 2
Cell line: mouse MPNST tumor cells
Technique: high-content nuclear imaging
Refers to: cell number
Tested at: 10 µM
Time: 12 h
Setting: mean of 2 replicates
Baseline: plate mean
Direction: higher = more cells
Structure (SMILES) | nuclei count
CC(O)(CS(=O)(=O)c1ccc(F)cc1)C(=O)Nc1ccc(C#N)c(C(F)(F)F)c1 (stereo not drawn) | 1.76 z-score and 3.36 z-score and 1.92 z-score
CC(C)c1cccc(C(C)C)c1O | 2.18 z-score
O=C(O)C(=O)c1cn(Cc2ccccc2)c2ccc(-c3ccc(OC(F)(F)F)cc3)cc12 | 1.45 z-score
CCCCCOc1c(OC)ccc2cc(C(=O)NCc3ccc4c(c3)OCO4)c(=O)[nH]c12 | 0.743 z-score
CN(C)C(=O)Oc1cccc([N+](C)(C)C)c1 | 1.24 z-score
CNCC(O)c1ccc(O)cc1 (racemic) | -0.304 z-score
CC(Cc1ccc(O)cc1)NCC(O)c1cc(O)cc(O)c1 (stereo not drawn) | 0.927 z-score

Sample 3
SMILES: COc1ccc2c(c1)O[C@@H](c1ccc(OC)c(OC)c1)C[C@H]2NC(=O)C1(c2ccc3c(c2)OC(F)(F)O3)CC1
Tested at: 10 µM
target | test | inhibition
CHRM3 (Homo sapiens, UniProt P20309) | binding, radioligand binding | 2.35%
OPRK1 (Homo sapiens, UniProt P41145) | binding, radioligand binding | 27.4%
SLC6A2 (Homo sapiens, UniProt P23975) | binding, radioligand binding | -14.1%
DRD5 (Homo sapiens, UniProt P21918) | binding, radioligand binding | 20%
OPRM1 (Homo sapiens, UniProt P35372) | binding, radioligand binding | 4.18%
SLC6A4 (Homo sapiens, UniProt P31645) | binding, radioligand binding | 5.75%
HTR1A (Homo sapiens, UniProt P08908) | ligand displacement | -32.3%
SLC6A3 (Homo sapiens, UniProt Q01959) | binding, radioligand binding | -12.2%

Sample 4
Target: Serine/threonine-protein kinase 33 (STK33, Homo sapiens, UniProt Q9BYT3)
UniProt Q9BYT3, sequence (whole entry, looked up): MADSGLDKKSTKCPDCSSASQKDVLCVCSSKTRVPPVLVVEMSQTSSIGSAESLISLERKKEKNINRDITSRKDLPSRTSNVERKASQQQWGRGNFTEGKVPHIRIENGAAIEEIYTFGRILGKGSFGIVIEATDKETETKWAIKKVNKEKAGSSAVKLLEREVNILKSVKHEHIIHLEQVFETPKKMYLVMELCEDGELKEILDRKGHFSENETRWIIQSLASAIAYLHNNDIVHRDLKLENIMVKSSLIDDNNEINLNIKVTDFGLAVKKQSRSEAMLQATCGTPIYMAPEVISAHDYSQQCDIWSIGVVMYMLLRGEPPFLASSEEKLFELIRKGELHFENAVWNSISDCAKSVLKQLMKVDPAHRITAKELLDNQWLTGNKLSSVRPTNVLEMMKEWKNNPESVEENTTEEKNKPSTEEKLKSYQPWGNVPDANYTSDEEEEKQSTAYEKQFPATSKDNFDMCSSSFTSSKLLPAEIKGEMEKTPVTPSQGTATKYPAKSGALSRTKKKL
Read-out: enzyme activity
Action: inhibitor
Technique: radiometric
Tested at: 0.5 µM
Compound | remaining activity [%]
O=C1NC(=O)C(c2c[nH]c3ccccc23)=C1c1c[nH]c2ccccc12 | 97.7
Oc1ccc(Nc2nc(-c3ccc(Cl)cc3)cs2)cc1 | 97.5
O=C1NC(=O)c2c1c1c3ccccc3n3c1c1c2c2ccccc2n1[C@H]1CC[C@@H]3O1 | 12.7
CC(C)(C)c1cc(C=C(C#N)C#N)cc(Br)c1O | 91.1
NC(=O)c1ccc(N(C(N)=O)c2c(F)cccc2F)nc1-c1ccc(F)cc1F | 94
CSc1nc(-c2ccnc(N[C@@H](C)c3ccccc3)c2)c(-c2ccc(F)cc2)[nH]1 (racemic) | 107
Nc1nc(Nc2ccc(S(N)(=O)=O)cc2)nn1C(=O)c1c(F)cccc1F | 74.4
O=S(=O)(NCCNC/C=C/c1ccc(Br)cc1)c1cccc2cnccc12 | 79.5
CC[n+]1c(/C=C/N(C)c2ccccc2)n(-c2ccccc2)c2ccc(-c3nc4ccccc4s3)cc21 | 89.4
COc1ccc(S(=O)(=O)N(CCO)c2ccccc2CN(C)CC=Cc2ccc(Cl)cc2)cc1 | 97.3
Cc1cc(Nc2nc(-c3ccccc3)nc3ccccc23)n[nH]1 | 44.7
Nc1ncnc2c1cnn2-c1ccccc1 | 96.1
Cc1ccc(NC2=CC(=O)c3sc(C)nc3C2=O)cc1 | 96.6
Fc1ccc(-c2nc3n(c2-c2ccncc2)CCS3)cc1 | 96.5
CC(C)(C)n1nc(Cc2cccc3ccccc23)c2c(N)ncnc21 | 99.7
N#CC(=C(N)Sc1ccc(N)cc1)c1ccccc1C(F)(F)F | 92.2
CC(=O)c1ccc(N2CCOCC2)cc1O | 109
O=C1Cc2c([nH]c3ccc([N+](=O)[O-])cc23)-c2ccccc2N1 | 79.9
Nc1nccc(-c2c(-c3ccc(F)cc3)ncn2C2CCNCC2)n1 | 98.6
CC#CC(=O)Nc1cc2c(Nc3ccc(F)c(Cl)c3)ncnc2cn1 | 88.5
CCc1[nH]c(-c2ccc(OC)cc2)nc1-c1ccncc1 | 101
Cc1cncc2cccc(S(=O)(=O)N3CCCN(C(=O)CN)C[C@@H]3C)c12 | 100
CCCC(=O)Oc1ccc2[nH]c(C(=O)c3cc4ccccc4[nH]3)cc2c1 | 92.9
COc1cc(Nc2c(C#N)cnc3cc(OCCCN4CCN(C)CC4)c(OC)cc23)c(Cl)cc1Cl | 63.5

Sample 5
Organism: Plasmodium berghei
Cell line: Huh-7
Strain: liver stage
Tested at: 10 µM
Time: 24 h
Baseline: control
Compound | parasite load
C=C1CC[C@H](O)C/C1=C/C=C1\CCC[C@]2(C)[C@@H]([C@H](C)CCCC(C)C)CC[C@@H]12 | 78.5%
CC(=O)[C@@]12O[C@](C)(c3ccccc3)O[C@@H]1C[C@H]1[C@@H]3CCC4=CC(=O)CC[C@]4(C)[C@H]3CC[C@@]12C | 17.3%
COc1cc2c3cc1Oc1cc(ccc1O)C[C@@H]1c4c(cc(OC)c(O)c4Oc4ccc(cc4)C[C@@H]3N(C)CC2)CC[N+]1(C)C | 79.2%
C=CCN1CC[C@]23c4c5ccc(O)c4O[C@H]2C(=O)CC[C@@]3(O)[C@H]1C5 | 85.7%
C[C@]12CC[C@H]3C(=CCc4cc(O)ccc43)[C@@H]1CCC2=O | 105%
COc1ccc2c3c1O[C@H]1C[C@@H](O)C=C[C@@]31CCN(C)C2 | 91.3%
O=c1[nH]c2ccccc2n1CCCN1CCC(n2c(=O)[nH]c3cc(Cl)ccc32)CC1 | 61.4%
CN1CCc2cc3c(cc2C1O)OCO3 (stereo not drawn) | 79%

Other studies, line by line
Target: Bromodomain-containing protein 4, BD1 (BRD4, Homo sapiens, UniProt O60885)
Read-out: acetyl-histone H4 peptide binding
Technique: AlphaScreen displacement
Tested at: 50 µM
Structure (SMILES) | inhibition [%]
CN1C(=O)C(=CNc2ccc(Cl)cc2)C(=O)NC1=S | 13.6
Cc1cccc(N2C(=O)NC(=O)C(=CNc3ccc4c(c3)OCO4)C2=O)c1 | 14.7

Excerpt of the above (sample 4):
Compound | remaining activity [%]
Nc1nc(Nc2ccc(S(N)(=O)=O)cc2)nn1C(=O)c1c(F)cccc1F | 74.4
NC(=O)c1ccc(N(C(N)=O)c2c(F)cccc2F)nc1-c1ccc(F)cc1F | 94
Cc1ccc(NC2=CC(=O)c3sc(C)nc3C2=O)cc1 | 96.6
CCCC(=O)Oc1ccc2[nH]c(C(=O)c3cc4ccccc4[nH]3)cc2c1 | 92.9
CC(=O)c1ccc(N2CCOCC2)cc1O | 109
Nc1nccc(-c2c(-c3ccc(F)cc3)ncn2C2CCNCC2)n1 | 98.6
CCc1[nH]c(-c2ccc(OC)cc2)nc1-c1ccncc1 | 101
Cc1cncc2cccc(S(=O)(=O)N3CCCN(C(=O)CN)C[C@@H]3C)c12 | 100
